Measurements of several laboratories.
Each line is one published result; not all experiments were run side by side.
Chain of UniProt O95819 (whole entry, looked up): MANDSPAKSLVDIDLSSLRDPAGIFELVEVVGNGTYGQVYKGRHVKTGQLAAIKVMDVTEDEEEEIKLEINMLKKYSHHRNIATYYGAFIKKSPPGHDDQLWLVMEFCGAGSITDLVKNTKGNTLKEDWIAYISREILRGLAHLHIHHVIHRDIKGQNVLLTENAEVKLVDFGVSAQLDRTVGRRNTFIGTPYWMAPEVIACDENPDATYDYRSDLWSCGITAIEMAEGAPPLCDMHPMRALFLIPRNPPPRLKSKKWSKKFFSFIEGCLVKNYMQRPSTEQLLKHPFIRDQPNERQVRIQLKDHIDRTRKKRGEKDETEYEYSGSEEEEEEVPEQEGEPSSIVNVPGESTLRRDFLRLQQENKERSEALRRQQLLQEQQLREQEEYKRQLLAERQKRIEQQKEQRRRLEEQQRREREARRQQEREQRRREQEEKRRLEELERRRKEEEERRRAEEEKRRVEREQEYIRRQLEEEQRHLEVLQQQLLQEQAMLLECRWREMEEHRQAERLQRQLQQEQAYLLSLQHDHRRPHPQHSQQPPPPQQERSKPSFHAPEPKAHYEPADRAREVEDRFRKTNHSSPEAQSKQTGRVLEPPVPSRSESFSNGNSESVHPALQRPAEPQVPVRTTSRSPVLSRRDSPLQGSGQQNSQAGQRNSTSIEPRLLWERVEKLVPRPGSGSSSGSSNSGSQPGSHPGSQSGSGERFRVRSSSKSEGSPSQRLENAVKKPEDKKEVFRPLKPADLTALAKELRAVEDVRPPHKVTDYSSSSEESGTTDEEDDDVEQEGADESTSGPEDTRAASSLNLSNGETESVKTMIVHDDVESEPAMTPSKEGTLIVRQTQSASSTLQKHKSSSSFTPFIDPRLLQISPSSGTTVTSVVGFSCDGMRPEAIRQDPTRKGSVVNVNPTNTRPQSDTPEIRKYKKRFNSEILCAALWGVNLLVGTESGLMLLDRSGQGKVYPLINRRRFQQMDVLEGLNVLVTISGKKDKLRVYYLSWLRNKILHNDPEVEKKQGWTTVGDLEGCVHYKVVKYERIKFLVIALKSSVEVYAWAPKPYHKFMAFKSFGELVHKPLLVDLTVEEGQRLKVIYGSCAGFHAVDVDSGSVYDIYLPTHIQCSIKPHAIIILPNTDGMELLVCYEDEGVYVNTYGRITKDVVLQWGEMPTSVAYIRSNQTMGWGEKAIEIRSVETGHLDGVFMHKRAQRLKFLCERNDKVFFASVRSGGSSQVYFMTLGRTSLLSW

For N=C(N)c1ccccc1OCc1ccc(COc2ccccc2C(=N)N)cc1, the haemolysis was 0% (haemolysis; sheep; 200 µg/mL, 20 h).
The logP of CCc1nn(C)c2nc(-c3ccc(C(=O)O)cc3)nc(NCc3ccc(F)cc3)c12 is reported as 4.7.
Nc1ccc(-c2nc([C@H]3CCc4cc(-c5cc(Cl)ccc5-n5cnnn5)cc(=O)n43)c(F)[nH]2)c(F)n1 gave a Cmax of 537 ng/mL (human, plasma; oral, 80 mg, single dose, fed).
With NCc1cc2c(cc1F)C(=O)N(C1CCC(=O)NC1=O)C2 (stereo not shown) the concentration was 6.5 ng/mL (male CD-1 mouse, plasma; intravenous, 1 mg/kg, 2 h).
For O=C(NCc1nc(-c2ccc(C(F)(F)F)cc2)cs1)[C@H]1CCCN(C(=O)COCCN2CCCCC2)C1, the microsomal CLint was 83 µL/min/mg (metabolic stability; male Sprague-Dawley rat, liver microsomes; 0.5 µM).
Cn1nc2c(=O)n(C3CC3)ccc2c1[C@](O)(c1cnc(C(F)(F)F)c(Cl)c1)C(F)(F)F gave a hepatocyte CLint of 0.6 µL/min/10⁶ cells (metabolic stability; male Sprague-Dawley rat, hepatocytes; 0.5 µM, pH 7.4).
For COc1ccc(-c2coc3cc(O)ccc3c2=O)cc1, the Papp B→A was 2.94 ×10⁻⁶ cm/s (Caco-2; 100 µg/mL, 2 h).
For O=c1c2ccc(Oc3ccc(OC(F)(F)F)cc3)cc2[nH]c2ccc(Cl)c(F)c12, the microsomal CLint was 1.26 µL/min/mg (metabolic stability; mouse, liver microsomes; 1 µM, pH 7.4).
The microsomal CLint of CC(Nc1nc(-c2ccccn2)nc2ccccc12)c1ccccn1 (stereo not shown) is reported as 51 µL/min/mg (metabolic stability; mouse, liver microsomes).
COc1cc2c3c(n(CCCN4CCOCC4)c(=O)c2cc1OC)-c1cc2c(cc1C3=O)OCO2 has an AUC(0-inf) of 262 ng·h/mL (female beagle dog, plasma; intravenous, 10 mg/m², infusion).
The AUC(0-inf) of O=C1CC[C@H](N2Cc3cc(N4CCN(CC5CCN(c6ccc([C@@H]7c8ccc(O)cc8CC[C@@H]7c7ccccc7)cc6)CC5)CC4)ccc3C2=O)C(=O)N1 is reported as 11300 ng·h/mL (female Sprague-Dawley rat, plasma; oral, 20 mg/kg, fasted).
With FC(F)(F)c1ccccc1-c1nc(N2CCC(c3ccccn3)C2)c2ccccc2n1 (stereo not shown) the Papp was 38 ×10⁻⁶ cm/s (PAMPA; 10 µM, 3 h, pH 7.4).
The hepatocyte CLint of Cc1cc(=O)n(-c2ccccc2)n1C is reported as 1.8 µL/min/10⁶ cells (metabolic stability; Sprague-Dawley rat, hepatocytes; 0.5 µM, pH 7.4).
N#C[C@@]12C[C@@H]1[C@@H](n1cnc3c(N[C@@H](C4CCC4)C4CC4)nc(I)nc31)[C@H](O)[C@@H]2O has an MRT(0-t) of 2.33 h (male Wistar rat, plasma; oral, 10 mg/kg).
For c1ccc(-c2nc(N3CCCC3)c3ccccc3n2)nc1, the microsomal CLint was 136 µL/min/mg (metabolic stability; mouse, liver microsomes).
For N=C(N)c1ccc(OCc2ccc3ccc(COc4ccc(C(=N)N)cc4)cc3c2)cc1, the haemolysis was 2.6% (haemolysis; sheep; 200 µg/mL, 1 h).
With COc1ccc(NC(=O)Nc2ccc3c(c2)S(=O)(=O)C=C3)cc1 the Papp was 19.4 ×10⁻⁶ cm/s (PAMPA-BBB; pH 7.4).
CCn1cnc2c(N3CCC(c4ccccn4)C3)nc(-c3ccccn3)nc21 (stereo not shown) has a Papp of 19.2 ×10⁻⁶ cm/s (PAMPA; 10 µM, 3 h, pH 7.4).
CCN1CCN(Cc2ccc(NC(=O)c3ccc(C)c(NC(=O)c4cncc(-c5cccs5)c4)c3)cc2C(F)(F)F)CC1 has a CL/F of 138 mL/min/kg (mouse, plasma; intraperitoneal, 10 mg/kg, single dose).
CC(C)Oc1c(NC(=O)c2ccc(NC(=O)[C@H](CC(N)=O)NC(=O)c3ccc(NC(=O)c4ccc(C#N)cc4)cc3)cc2)ccc(C(=O)Nc2ccc(C(=O)O)cc2)c1O gave an MRT of 1.08 h (male CD-1 mouse, plasma; intravenous, 5 mg/kg, single dose).
With O=C(c1ccc(F)cc1)C1CCN(CCn2c(=O)[nH]c3ccccc3c2=O)CC1 the compound remaining was 81.5% (metabolic stability; dog, liver microsomes; 15 min).
For COc1ccc2c(c1)CN(C(=O)CCN1CCC(Cc3ccccc3)CC1)CC[S@@+]2[O-], the AUC(0-t) was 675 ng·h/mL (male human, plasma; intravenous, 0.15 mg/kg, healthy volunteers).
N=C(N)c1cccc(OCc2cccc(COc3cccc(C(=N)N)c3)c2)c1 gave a haemolysis of 0.2% (haemolysis; sheep; 200 µg/mL, 1 h).
Cn1nc2c(=O)n(C3CC3)ccc2c1[C@](O)(c1ccc(C(F)(F)F)nc1)C1CC1 has a hepatocyte CLint of 1.3 µL/min/10⁶ cells (metabolic stability; human, hepatocytes; 0.5 µM, pH 7.4).
With c1ccc(-c2nc(NCCn3ccnc3)c3ccccc3n2)nc1 the microsomal CLint was 52 µL/min/mg (metabolic stability; mouse, liver microsomes).
CCOC(=O)[C@@]12C[C@@H]1[C@@H](n1ccc3c(NC)nc(C#Cc4ccc(Cl)s4)nc31)[C@H](O)[C@@H]2O gave a concentration of 124 ng/mL (male Sprague-Dawley rat, plasma; oral, 10 mg/kg, 1 h).
With CNc1ncc2c(/C=C/C(=O)N3CCC(OC)CC3)nn(Cc3cccc(C(F)(F)F)c3)c2n1 the remaining activity was 86% (MAP4K4 (Homo sapiens, UniProt O95819); enzyme activity, inhibitor, radiometric; 1 µM).
With Cn1nc2c(=O)n(C3CC3)ccc2c1[C@](O)(c1cnc(C(F)(F)F)c(Cl)c1)C1CC1 the hepatocyte CLint was 3 µL/min/10⁶ cells (metabolic stability; human, hepatocytes; 0.5 µM, pH 7.4).
C=CCn1c(=O)c2cnc(Nc3ccc(N4CCN(C)CC4)cc3)nc2n1-c1ccc2c(n1)[C@@](O)(CC)CC2 gave a fraction unbound of 0.344 (human, plasma).
For COc1ccc([C@@H](O)c2cc(-c3ncnc4cc(N5CCOCC5)ccc34)c(F)cc2Cl)nn1, the Cmax was 3150 ng/mL (human, plasma; oral, 250 mg, multiple doses, once daily, patients).
N#CC1CCN(c2nc(-c3ccccn3)nc3ccccc23)CC1 has a Papp of 22.9 ×10⁻⁶ cm/s (PAMPA; 10 µM, 3 h, pH 7.4).
CC(=Nc1ccc(N=Cc2cnccn2)cc1)N(C)C gave a Cmax of 400 ng/mL (male Sprague-Dawley rat, plasma; intravenous, 20 mg/kg).
The concentration of COc1cccc(-c2n[nH]c(SCc3ccccn3)n2)c1OC is reported as 6460 ng/mL (male Sprague-Dawley rat, plasma; intravenous, 1 mg/kg, 4.98 min, single dose).
N=C(N)c1ccc(OCc2cccc(COc3ccc(C(=N)N)cc3)c2)cc1 gave a haemolysis of 0.9% (haemolysis; sheep; 200 µg/mL, 1 h).
COc1ccc2[nH]c([S+]([O-])Cc3ncc(C)c(OC)c3C)nc2c1 (stereo not shown) has a hepatocyte CLint of 18.4 µL/min/10⁶ cells (metabolic stability; human, hepatocytes; 0.5 µM, pH 7.4).
The compound remaining of O=C(Nc1ccc(CN2CCOCC2)c(C(F)(F)F)c1)c1ccc(C#Cc2cccc3cnccc23)cn1 is reported as 4.95% (metabolic stability; mouse, liver microsomes; 1 h).
For O=C(COc1ccc(Cl)cc1)NC12CC(c3nnc([C@H]4C[C@@H](OC(F)(F)F)C4)o3)(C1)C2, the half-life was 41.1 h (human, plasma; oral, 100 mg, multiple doses, once daily, healthy volunteers).
With COCC(=O)N1CCC[C@H](C(=O)NCc2nc(-c3ccc(-c4ccccc4)cc3)cs2)C1 the microsomal CLint was 62 µL/min/mg (metabolic stability; human, liver microsomes; 0.5 µM).
CC(C)[N+](C)(CCOC(=O)C1c2ccccc2Oc2ccccc21)C(C)C gave a compound remaining of 72.8% (metabolic stability; human, plasma; 15 min).
The Vd of C=CC(=O)NC1CCN(c2ncc3ncnc(Nc4ccc(Oc5ccc6c(c5)ncn6C)c(C)c4)c3n2)CC1 is reported as 138 L (male human, plasma; intravenous, 100 µg, healthy volunteers).

Repeated from above:
With FC(F)(F)c1ccccc1-c1nc(N2CCC(c3ccccn3)C2)c2ccccc2n1 (stereo not shown) the Papp was 38 ×10⁻⁶ cm/s (PAMPA; 10 µM, 3 h, pH 7.4).
For N=C(N)c1ccccc1OCc1ccc(COc2ccccc2C(=N)N)cc1, the haemolysis was 0% (haemolysis; sheep; 200 µg/mL, 20 h).
